Measured values of several laboratories.
Every numbered part comes from another study and shows a few of its results, in no order. Substitutions count along the parent as printed.

Set 1 — method: DHFR PCA, deep sequencing; medium: yeast; with: (+)-ABA 0.032 µM; reference: wild-type fitted maximum; direction: higher = stronger binding
Target: ABI1, truncated, D143A, DHFR fusion (Arabidopsis thaliana)
Setting: methotrexate growth selection, single substitutions
Starting sequence: PYL1, truncated, DHFR fusion (Arabidopsis thaliana); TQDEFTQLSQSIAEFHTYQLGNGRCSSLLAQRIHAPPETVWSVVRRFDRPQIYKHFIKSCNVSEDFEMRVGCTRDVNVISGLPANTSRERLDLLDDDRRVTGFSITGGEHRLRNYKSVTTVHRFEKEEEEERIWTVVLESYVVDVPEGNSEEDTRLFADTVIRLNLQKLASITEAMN; partner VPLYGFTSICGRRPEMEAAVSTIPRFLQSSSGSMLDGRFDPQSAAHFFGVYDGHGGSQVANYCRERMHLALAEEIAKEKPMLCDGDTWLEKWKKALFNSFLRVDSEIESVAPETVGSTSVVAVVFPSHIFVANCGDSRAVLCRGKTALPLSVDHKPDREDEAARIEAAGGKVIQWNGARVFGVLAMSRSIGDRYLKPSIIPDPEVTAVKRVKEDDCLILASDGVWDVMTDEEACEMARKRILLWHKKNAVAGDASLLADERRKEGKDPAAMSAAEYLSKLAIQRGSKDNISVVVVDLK
`E38H` — result for “relative binding score”: -0.656%.
For `V78N`, “relative binding score” read 38.4%.
`M176T`: “relative binding score” 6.22%.
Under “relative binding score”, `E38I` is recorded as 0.144%.
Under “relative binding score”, `V143C` is recorded as 48%.
Under “relative binding score”, `W41S` is recorded as -2.97%.
Under “relative binding score”, `V62C` is recorded as -1.66%.
For `G108R`, “relative binding score” read 1.07%.
Under “relative binding score”, `L138Y` is recorded as -1.63%.
Under “relative binding score”, `L169Y` is recorded as -5.77%.
`T1C` — result for “relative binding score”: 25.5%.
For `L8K`, “relative binding score” read 1.73%.
Under “relative binding score”, `L94R` is recorded as -0.591%.
`E89H` — result for “relative binding score”: -0.841%.
`I79F`: “relative binding score” 21.9%.

Set 2 — method: RNA Bind-n-Seq; form: RNA; medium: in vitro; tested at: 365 nM; reference: no-protein control; direction: higher = stronger binding
Target: RNA binding protein fox-1 homolog 2, RRM domain, GST-SBP tag (RBFOX2, Homo sapiens, UniProt O43251-10, residues 100-194)
Setting: natural RNA segment, single round, ends assumed
Residues (chain): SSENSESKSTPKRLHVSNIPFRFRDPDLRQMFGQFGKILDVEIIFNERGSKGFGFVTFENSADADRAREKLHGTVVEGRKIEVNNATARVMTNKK
Under “RBNS enrichment (R)”, `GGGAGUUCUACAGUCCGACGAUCAAGUAACACAGAUUCCCUGAUUUUUUUUUUUAAAAAACUAAAAAGAUCUCUAAACCUUCUUACAUAGAAAGCAUCCCUAUAAUCUAUAGGGAGAGGCGGGGAAUAAAGUGUGGAAUUCUCGGGUGCCAA` is recorded as 0.474.
Under “RBNS enrichment (R)”, `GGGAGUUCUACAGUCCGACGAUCUUGGAUUUGACCCCUUGGCUCUCAAGUGUCCCCUUAGAUCUAGAACUGCUCCUUGGUGGCCAUUAGAUCGAGUCAGUUUUGAUCUGCAUCACUUAGUUAUUGGGAAUUUCUGGAAUUCUCGGGUGCCAA` is recorded as 0.45.
`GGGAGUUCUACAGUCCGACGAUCCUCCUUCCUGAUGGUCGCCCGUCCUCCCCUUUUGACGGAUGGUAUUCUUUCCUAACUCCCUCUGUUUUGUUUAAUUUUGGCUUUAGGUUUGCUGUCACUGGUCAUAUGGCUGGAAUUCUCGGGUGCCAA` — result for “RBNS enrichment (R)”: 0.51.
`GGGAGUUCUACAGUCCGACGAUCGUCUGGAAAUAGGGCUGUCUGCUUAUGGAAAUGCCAUCUGUAGACCUUGAGAGUCAACUGUACAGAUGUUUGCAGGUGACUCCUGCUUGCCACCCACCCAUCAUAUUUGAUGGAAUUCUCGGGUGCCAA`: “RBNS enrichment (R)” 0.278.
`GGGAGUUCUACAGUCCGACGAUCAUUUGAUCAUUAUAAGAAGUGUGGGACUCAAGCACAGGAAACUGAACUCUUUUGGUGUCAUUGGAUGUUUCAUUUUUGACACUAAUUUUUUCUGGACAAACUCUUUAUGUUGGAAUUCUCGGGUGCCAA`: “RBNS enrichment (R)” 0.613.
For `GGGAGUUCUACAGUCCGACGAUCAAAGCUAAAAUCCCUGGCUCAGUUGCUAGAGUGCCUAGUAAAAUUCCUAGCAUAUGUGAGCGCUCCAUUGGCUCAGCACAGACACUAAUAAAGACAUGAUUGGCCCCAGAUGGAAUUCUCGGGUGCCAA`, “RBNS enrichment (R)” read 1.54.
For `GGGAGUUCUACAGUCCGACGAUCUUAGUGUGUAUAUAUGUCGCCCCUGUGAUGCAUAUAUACACAGGUAUUAAAUAUAUCGCUCUAUAUAAUAUUAUAUAUGUGUGUGGUAUCCAAGGAAUCUCUUCUAUUGAUGGAAUUCUCGGGUGCCAA`, “RBNS enrichment (R)” read 0.573.
`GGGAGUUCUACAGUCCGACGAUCCUGACAAGGACUUCGCCUGGCUCUCCUAGGCCCGCCCGCCGGCAGGGUCGGUGGCUGCCUCGCUCCGUCCACCCGUGUGUGUGUCCGGUGGGUCUCCACUGCGGGGCCAGUGGAAUUCUCGGGUGCCAA`: “RBNS enrichment (R)” 0.325.

Set 3 — target: CCNF, cyclin fold, Cln2 fusion (human); method: yeast growth competition, sequencing; medium: yeast; setting: strong parent motif; reference: not given; direction: higher = stronger binding
Starting sequence: E2F1 docking peptide (human); PPVKRRLDFETDH; partner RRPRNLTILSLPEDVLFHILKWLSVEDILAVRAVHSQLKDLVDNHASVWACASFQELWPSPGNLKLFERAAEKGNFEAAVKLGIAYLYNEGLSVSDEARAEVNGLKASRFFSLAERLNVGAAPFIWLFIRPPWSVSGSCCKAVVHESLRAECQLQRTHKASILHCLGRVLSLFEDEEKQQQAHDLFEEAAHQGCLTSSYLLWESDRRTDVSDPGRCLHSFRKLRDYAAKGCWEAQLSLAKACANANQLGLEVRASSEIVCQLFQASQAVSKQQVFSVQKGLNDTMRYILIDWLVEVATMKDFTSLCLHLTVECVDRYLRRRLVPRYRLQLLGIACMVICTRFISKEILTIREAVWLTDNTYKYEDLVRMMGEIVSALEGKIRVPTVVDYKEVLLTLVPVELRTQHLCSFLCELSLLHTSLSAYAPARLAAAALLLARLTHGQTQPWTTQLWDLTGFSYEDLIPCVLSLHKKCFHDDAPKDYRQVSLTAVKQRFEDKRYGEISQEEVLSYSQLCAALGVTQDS
For `P2T`, “normalised enrichment score” read 7.73.
`L7W`: “normalised enrichment score” 0.565.
Under “normalised enrichment score”, `P2C` is recorded as 8.13.
`K4R`: “normalised enrichment score” 7.47.
Under “normalised enrichment score”, `V3Y` is recorded as 7.17.
`D8H` — result for “normalised enrichment score”: 7.86.
For `V3Q`, “normalised enrichment score” read 6.37.
Under “normalised enrichment score”, `V3I` is recorded as 7.16.
`V3H`: “normalised enrichment score” 7.06.
For `D12S`, “normalised enrichment score” read 8.
Under “normalised enrichment score”, `D8R` is recorded as 8.1.
`T11A` — result for “normalised enrichment score”: 7.
`T11H`: “normalised enrichment score” 7.62.
`D8P` — result for “normalised enrichment score”: 6.76.
`R6I` — result for “normalised enrichment score”: 6.07.
`R5H` — result for “normalised enrichment score”: 1.41.
`V3E` — result for “normalised enrichment score”: 6.72.
For `K4D`, “normalised enrichment score” read 5.41.
Under “normalised enrichment score”, `L7T` is recorded as 0.151.
For `R5W`, “normalised enrichment score” read -0.157.
Under “normalised enrichment score”, `K4A` is recorded as 6.38.
Under “normalised enrichment score”, `D8C` is recorded as 7.81.
`V3K`: “normalised enrichment score” 1.94.

Single results of other studies
For `YWHAQ (Homo sapiens, UniProt P27348)`, interaction screen read “cross-linked” (YWHAB (Homo sapiens, UniProt P31946); cross-linking MS; hits only).
With `PhoQ, residues 284 288 289 292 302 303 TASMAF` the fold induction was 11.1 (PhoP, residues 12 14 15 18 19 LHATL (Escherichia coli, UniProt P23836); Sort-seq, item: YFP reporter; E. coli; PhoQ-PhoP variant library, with: 10 µM Mg2+; reference: high Mg2+ state, higher = stronger signaling).
For `BNIP1 (Homo sapiens, UniProt Q12981)`, interaction screen read “cross-linked” (RINT1 (Homo sapiens, UniProt Q6NUQ1); cross-linking MS; hits only).
`MBD3 (Homo sapiens, UniProt O95983)` — result for cross-linked residues: “K227 to K126” (GATAD2A (Homo sapiens, UniProt Q86YP4); cross-linking MS; cell fractions; with: DSSO).
`SURF6 (Homo sapiens, UniProt O75683)` — result for cross-linked residues: “E316 to K848” (DDX54 (Homo sapiens, UniProt Q8TDD1); cross-linking MS; cell fractions; with: DMTMM).
